Published values collected from several papers.
Every numbered part comes from another study and shows a few of its results, in no order. Positions count from the first letter of the parent shown.
UniProt Q96S53, sequence (whole entry, looked up): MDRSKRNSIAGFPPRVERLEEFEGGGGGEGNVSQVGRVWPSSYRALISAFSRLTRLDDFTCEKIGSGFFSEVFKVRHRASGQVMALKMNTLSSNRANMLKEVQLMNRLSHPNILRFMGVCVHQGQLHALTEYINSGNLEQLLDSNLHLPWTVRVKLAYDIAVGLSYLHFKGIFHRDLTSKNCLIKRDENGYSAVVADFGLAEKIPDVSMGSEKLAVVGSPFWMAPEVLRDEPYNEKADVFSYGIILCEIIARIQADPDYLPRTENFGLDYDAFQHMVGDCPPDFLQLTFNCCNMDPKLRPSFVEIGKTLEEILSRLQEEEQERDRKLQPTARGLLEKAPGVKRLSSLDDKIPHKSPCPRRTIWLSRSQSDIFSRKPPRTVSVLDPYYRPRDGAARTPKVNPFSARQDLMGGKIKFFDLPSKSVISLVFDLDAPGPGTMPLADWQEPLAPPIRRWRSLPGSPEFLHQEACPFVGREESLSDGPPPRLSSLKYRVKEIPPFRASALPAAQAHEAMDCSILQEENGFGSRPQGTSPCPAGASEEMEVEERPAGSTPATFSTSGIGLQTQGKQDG
UniProt Q9Y616, sequence (whole entry, looked up): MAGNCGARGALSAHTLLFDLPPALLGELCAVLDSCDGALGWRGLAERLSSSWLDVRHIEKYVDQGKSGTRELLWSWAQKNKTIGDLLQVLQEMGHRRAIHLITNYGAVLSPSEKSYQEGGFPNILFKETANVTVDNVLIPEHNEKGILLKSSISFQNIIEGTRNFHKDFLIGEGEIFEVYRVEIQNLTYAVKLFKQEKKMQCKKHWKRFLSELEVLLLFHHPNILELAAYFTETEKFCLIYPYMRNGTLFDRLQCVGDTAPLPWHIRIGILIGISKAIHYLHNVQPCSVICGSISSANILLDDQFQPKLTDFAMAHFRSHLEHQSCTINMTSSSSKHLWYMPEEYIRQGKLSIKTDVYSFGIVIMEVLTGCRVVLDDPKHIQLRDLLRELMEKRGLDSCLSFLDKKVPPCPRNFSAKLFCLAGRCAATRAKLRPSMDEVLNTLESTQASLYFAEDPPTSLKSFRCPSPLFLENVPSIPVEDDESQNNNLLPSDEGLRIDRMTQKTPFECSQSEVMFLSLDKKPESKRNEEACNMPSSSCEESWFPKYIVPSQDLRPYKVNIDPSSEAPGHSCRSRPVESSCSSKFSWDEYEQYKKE
UniProt Q13976, sequence (whole entry, looked up): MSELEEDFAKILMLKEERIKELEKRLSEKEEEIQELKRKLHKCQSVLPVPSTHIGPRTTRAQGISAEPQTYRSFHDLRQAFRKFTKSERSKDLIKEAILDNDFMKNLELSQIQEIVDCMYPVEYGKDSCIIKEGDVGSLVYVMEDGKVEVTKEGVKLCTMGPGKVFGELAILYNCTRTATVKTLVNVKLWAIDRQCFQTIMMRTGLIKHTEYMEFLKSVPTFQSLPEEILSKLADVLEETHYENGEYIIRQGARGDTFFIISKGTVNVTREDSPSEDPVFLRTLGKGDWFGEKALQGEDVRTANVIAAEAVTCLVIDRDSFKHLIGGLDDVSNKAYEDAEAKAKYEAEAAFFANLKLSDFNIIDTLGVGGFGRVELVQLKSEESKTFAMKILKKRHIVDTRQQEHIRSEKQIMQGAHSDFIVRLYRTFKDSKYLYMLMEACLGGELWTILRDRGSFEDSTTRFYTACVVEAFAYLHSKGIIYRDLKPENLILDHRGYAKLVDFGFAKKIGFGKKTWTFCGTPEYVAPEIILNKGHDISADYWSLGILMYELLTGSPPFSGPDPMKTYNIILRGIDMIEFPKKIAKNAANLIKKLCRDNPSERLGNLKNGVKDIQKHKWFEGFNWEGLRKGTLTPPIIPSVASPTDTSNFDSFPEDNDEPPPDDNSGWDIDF
UniProt O95747, sequence (whole entry, looked up): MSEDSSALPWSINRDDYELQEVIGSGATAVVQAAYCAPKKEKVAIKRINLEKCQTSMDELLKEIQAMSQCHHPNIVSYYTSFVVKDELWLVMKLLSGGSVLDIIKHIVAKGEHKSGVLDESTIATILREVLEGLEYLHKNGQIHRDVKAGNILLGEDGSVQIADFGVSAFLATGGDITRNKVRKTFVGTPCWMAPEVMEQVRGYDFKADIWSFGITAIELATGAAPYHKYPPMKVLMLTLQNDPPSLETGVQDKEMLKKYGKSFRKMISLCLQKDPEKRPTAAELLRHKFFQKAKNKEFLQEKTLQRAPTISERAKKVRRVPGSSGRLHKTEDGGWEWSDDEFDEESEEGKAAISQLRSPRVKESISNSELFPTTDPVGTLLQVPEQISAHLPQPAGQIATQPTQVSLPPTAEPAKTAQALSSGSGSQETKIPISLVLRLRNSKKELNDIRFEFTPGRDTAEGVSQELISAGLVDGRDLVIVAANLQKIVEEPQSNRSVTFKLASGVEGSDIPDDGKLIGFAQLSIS
UniProt P51617, sequence (whole entry, looked up): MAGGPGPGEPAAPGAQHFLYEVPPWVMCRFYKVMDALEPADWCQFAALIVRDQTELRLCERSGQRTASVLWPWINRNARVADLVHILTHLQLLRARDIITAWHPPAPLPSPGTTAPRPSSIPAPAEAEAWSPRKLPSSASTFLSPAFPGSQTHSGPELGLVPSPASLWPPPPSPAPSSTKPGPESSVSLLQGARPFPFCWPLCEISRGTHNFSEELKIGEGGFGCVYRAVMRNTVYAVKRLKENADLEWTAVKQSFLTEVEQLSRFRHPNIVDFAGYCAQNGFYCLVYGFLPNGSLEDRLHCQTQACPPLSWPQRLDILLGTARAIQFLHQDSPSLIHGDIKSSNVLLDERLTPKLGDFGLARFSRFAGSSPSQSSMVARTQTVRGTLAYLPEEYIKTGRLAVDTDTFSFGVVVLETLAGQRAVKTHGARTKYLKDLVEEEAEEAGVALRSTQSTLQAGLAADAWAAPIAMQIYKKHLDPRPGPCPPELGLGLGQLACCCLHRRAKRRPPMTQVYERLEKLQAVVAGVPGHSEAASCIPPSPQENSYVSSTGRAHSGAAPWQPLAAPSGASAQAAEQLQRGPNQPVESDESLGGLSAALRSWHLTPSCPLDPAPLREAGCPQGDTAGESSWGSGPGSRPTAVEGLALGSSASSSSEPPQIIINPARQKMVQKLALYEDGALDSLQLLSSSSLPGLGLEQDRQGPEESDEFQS
UniProt Q16566, sequence (whole entry, looked up): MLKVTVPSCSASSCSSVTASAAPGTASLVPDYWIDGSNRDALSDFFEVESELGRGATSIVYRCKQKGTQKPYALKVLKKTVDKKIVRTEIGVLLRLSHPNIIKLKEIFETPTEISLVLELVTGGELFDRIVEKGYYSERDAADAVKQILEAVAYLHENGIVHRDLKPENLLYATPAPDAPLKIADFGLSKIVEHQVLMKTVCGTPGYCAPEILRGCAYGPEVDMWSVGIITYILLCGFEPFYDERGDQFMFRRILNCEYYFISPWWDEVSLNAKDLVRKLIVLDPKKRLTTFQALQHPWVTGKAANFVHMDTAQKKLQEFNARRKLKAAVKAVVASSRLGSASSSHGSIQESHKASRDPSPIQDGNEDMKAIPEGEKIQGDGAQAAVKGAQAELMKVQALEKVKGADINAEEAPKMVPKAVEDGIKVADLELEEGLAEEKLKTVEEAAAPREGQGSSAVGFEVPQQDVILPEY
UniProt O94921, sequence (whole entry, looked up): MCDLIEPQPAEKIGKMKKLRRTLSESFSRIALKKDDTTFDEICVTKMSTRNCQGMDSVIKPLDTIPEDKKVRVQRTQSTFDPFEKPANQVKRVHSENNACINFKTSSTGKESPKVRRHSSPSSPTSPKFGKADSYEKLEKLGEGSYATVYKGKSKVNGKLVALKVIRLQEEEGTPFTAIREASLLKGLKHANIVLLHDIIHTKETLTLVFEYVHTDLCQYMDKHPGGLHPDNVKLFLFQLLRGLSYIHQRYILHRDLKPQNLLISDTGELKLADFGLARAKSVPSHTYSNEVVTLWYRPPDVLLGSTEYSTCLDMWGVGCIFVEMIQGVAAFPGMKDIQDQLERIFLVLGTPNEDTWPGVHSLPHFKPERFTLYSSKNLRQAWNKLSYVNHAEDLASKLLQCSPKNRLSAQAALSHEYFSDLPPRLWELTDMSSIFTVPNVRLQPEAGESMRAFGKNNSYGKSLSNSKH
UniProt Q7KZI7, sequence (whole entry, looked up): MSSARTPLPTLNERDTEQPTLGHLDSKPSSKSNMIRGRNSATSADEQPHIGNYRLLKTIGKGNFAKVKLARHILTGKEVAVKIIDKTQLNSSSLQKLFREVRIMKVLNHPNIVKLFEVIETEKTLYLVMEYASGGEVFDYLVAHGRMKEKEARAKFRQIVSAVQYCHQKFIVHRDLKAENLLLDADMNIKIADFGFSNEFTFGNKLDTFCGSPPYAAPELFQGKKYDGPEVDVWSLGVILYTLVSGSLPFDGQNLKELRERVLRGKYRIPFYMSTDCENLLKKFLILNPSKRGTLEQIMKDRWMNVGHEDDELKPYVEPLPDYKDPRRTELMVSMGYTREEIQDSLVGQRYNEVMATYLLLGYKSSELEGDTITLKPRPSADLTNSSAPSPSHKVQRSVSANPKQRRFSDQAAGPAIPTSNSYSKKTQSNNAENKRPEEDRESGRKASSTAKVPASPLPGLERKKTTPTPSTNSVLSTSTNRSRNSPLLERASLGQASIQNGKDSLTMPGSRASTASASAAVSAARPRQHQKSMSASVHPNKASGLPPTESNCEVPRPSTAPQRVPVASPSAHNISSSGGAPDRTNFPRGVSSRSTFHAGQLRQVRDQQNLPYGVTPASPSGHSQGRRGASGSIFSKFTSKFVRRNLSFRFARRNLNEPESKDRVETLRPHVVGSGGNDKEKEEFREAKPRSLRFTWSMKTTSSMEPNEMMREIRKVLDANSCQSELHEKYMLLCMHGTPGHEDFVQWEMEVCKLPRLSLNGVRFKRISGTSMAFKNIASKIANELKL

Series 1
Target: CCNA1, cyclin fold, Cln2 fusion (human)
Technique: yeast growth competition, sequencing
Sample: yeast
Notes: weak parent motif
Relative to: not given
Direction: higher = stronger binding
Parent: viral docking peptide; KGVKRKLFAEDSS
| Change | normalised enrichment score |
| --- | --- |
| KGSKRKLFAEDSS [V3S] | 0.155 |
| KGVKAKLFAEDSS [R5A] | 0.16 |
| KGVKRKGFAEDSS [L7G] | 0.245 |
| KGVKRKKFAEDSS [L7K] | 0.371 |
| KGVKRKMFAEDSS [L7M] | 0.358 |
| KGVKRKLFYEDSS [A9Y] | 1.32 |
| KGVGRKLFAEDSS [K4G] | 0.177 |
| KGGKRKLFAEDSS [V3G] | 0.191 |
| KGVKRLLFAEDSS [K6L] | 0.307 |
| KGVKRKLFAEWSS [D11W] | 0.31 |
| KGVKQKLFAEDSS [R5Q] | 0.696 |
| KGVKRKLFNEDSS [A9N] | 0.868 |
| KGRKRKLFAEDSS [V3R] | 0.642 |

Series 2
SMILES: O=C(Nc1cnn(-c2csc(C(=O)NC3COC3)c2)c1)Nc1c(F)cccc1Cl
Read-out: enzyme activity
Concentration: 5 µM
Relative to: untreated control
| target | remaining activity [%] |
| --- | --- |
| cGMP-dependent protein kinase 1, isoform beta (PRKG1, Homo sapiens, UniProt Q13976) | 100 |
| Cyclin-dependent kinase 6, with cyclin D3 (CDK6, Homo sapiens, UniProt Q00534) | 92.4 |
| Tyrosine-protein kinase JAK3 (JAK3, Homo sapiens, UniProt P52333) | 96.2 |
| cAMP-dependent protein kinase catalytic subunit gamma (PRKACG, Homo sapiens, UniProt P22612) | 97 |
| Protein-tyrosine kinase 6 (PTK6, Homo sapiens, UniProt Q13882) | 85.4 |
| Dual specificity testis-specific protein kinase 2 (TESK2, Homo sapiens, UniProt Q96S53) | 78.6 |
| Death-associated protein kinase 1 (DAPK1, Homo sapiens, UniProt P53355) | 97 |
| G protein-coupled receptor kinase 4 (GRK4, Homo sapiens, UniProt P32298) | 93.5 |

Series 3
Structure (SMILES): Cn1cncc1[C@@](O)(COc1ccc(C#N)cc1-c1ccc(OC(F)(F)F)cc1)c1ccc(C#N)cc1
Read-out: cell-free assay
Technique: competition with immobilised ligand
Concentration: 1 µM
| target | remaining binding |
| --- | --- |
| Interleukin-1 receptor-associated kinase 1 (IRAK1, Homo sapiens, UniProt P51617) | 73% |
| Calcium/calmodulin-dependent protein kinase kinase 2 (CAMKK2, Homo sapiens, UniProt Q96RR4) | 97% |
| Cyclin-dependent kinase 14 (CDK14, Homo sapiens, UniProt O94921) | 100% |
| MAP kinase-activated protein kinase 5 (MAPKAPK5, Homo sapiens, UniProt Q8IW41) | 100% |
| Interleukin-1 receptor-associated kinase 3 (IRAK3, Homo sapiens, UniProt Q9Y616) | 91% |
| Serine/threonine-protein kinase MARK2 (MARK2, Homo sapiens, UniProt Q7KZI7) | 100% |
| Phosphatidylinositol 4,5-bisphosphate 3-kinase catalytic subunit alpha isoform (PIK3CA, Homo sapiens, UniProt P42336) | 72% |
| Calcium/calmodulin-dependent protein kinase type IV (CAMK4, Homo sapiens, UniProt Q16566) | 100% |
| Serine/threonine-protein kinase OSR1 (OXSR1, Homo sapiens, UniProt O95747) | 75% |
| Protein kinase C eta type (PRKCH, Homo sapiens, UniProt P24723) | 95% |
| Cyclin-dependent kinase 2 homolog (CRK2, Plasmodium falciparum, UniProt P61075) | 69% |

Other studies, line by line
| Compound | target | read-out | mode | concentration | measurement | value |
| --- | --- | --- | --- | --- | --- | --- |
| CC(C)(C)c1cc(C=C(C#N)C#N)cc(Br)c1O | Cyclin-dependent kinase 9, with cyclin K (CDK9, Homo sapiens, UniProt P50750) | enzyme activity | inhibitor | 0.5 µM | remaining activity | 109% |
